Measured values from different studies.
Numbers after ± are the reported error.

Structure (SMILES) = CCCC[C@H](NC(=O)CCCCCCCNC(=O)c1ccc(NN)nc1)C(=O)N[C@H]1CC(=O)NCCCC[C@@H](C(N)=O)NC(=O)[C@H](Cc2c[nH]c3ccccc23)NC(=O)[C@H](CCCNC(=N)N)NC(=O)[C@@H](Cc2ccccc2)NC(=O)[C@H](Cc2c[nH]cn2)NC1=O [technetium-99m labelled]; system = C57 mouse, B16/F1 melanoma, liver; setting = intravenous, 4 h; endpoint = uptake; result = 1.26 ± 0.6 %ID/g
Structure (SMILES) = N=C(N)NCCC[C@@H]1NC(=O)[C@H](CCCCNC(=O)CCOCCOCCOCCOCCNC(=O)CN2CCN(CC(=O)O)CCN(CC(=O)O)CCN(CC(=O)O)CC2)NC(=O)[C@@H](Cc2ccccc2)NC(=O)[C@H](CC(=O)O)NC(=O)CNC1=O [indium-111 labelled]; system = athymic nude mice, female, U-87 MG glioma xenograft, tumour and blood; setting = intravenous, 24 h; how to read = relative to: tumour over blood; endpoint = tumour to tissue ratio; result = 23.7 ± 1.84
Structure (SMILES) = CSCC[C@H](NC(=O)[C@H](CC(C)C)NC(=O)[C@H](Cc1c[nH]cn1)NC(=O)CNC(=O)[C@@H](NC(=O)[C@H](C)NC(=O)[C@H](Cc1c[nH]c2ccccc12)NC(=O)[C@H](CCC(N)=O)NC(=O)CCCCCNC(=O)CNC(=O)CNC(=O)CNC(=O)CSC(C)=O)C(C)C)C(N)=O [technetium-99m labelled]; system = nude mouse, PC-3 xenograft, bone; setting = 30 min; endpoint = tissue uptake; result = 0.5 ± 0.12 %ID/g
Structure (SMILES) = CCCC[C@H](NC(=O)CNC(=O)CNC(=O)c1ccc(NN)nc1)C(=O)N[C@H]1CC(=O)NCCCC[C@@H](C(N)=O)NC(=O)[C@H](Cc2c[nH]c3ccccc23)NC(=O)[C@H](CCCNC(=N)N)NC(=O)[C@@H](Cc2ccccc2)NC(=O)[C@H](Cc2c[nH]cn2)NC1=O [technetium-99m labelled]; system = C57 mouse, B16/F1 melanoma, urine; setting = intravenous, 0.5 h; endpoint = uptake; result = 73.1 ± 2.72 %ID
Structure (SMILES) = CCCC[C@H](NC(=O)CNC(=O)CNC(=O)CNC(=O)c1ccc(NN)nc1)C(=O)N[C@H]1CC(=O)NCCCC[C@@H](C(N)=O)NC(=O)[C@H](Cc2c[nH]c3ccccc23)NC(=O)[C@H](CCCNC(=N)N)NC(=O)[C@@H](Cc2ccccc2)NC(=O)[C@H](Cc2c[nH]cn2)NC1=O [technetium-99m labelled]; system = C57 mouse, B16/F1 melanoma, skin; setting = intravenous, 2 h; endpoint = uptake; result = 0.31 ± 0.1 %ID/g
Structure (SMILES) = CC(C)C[C@H](NC(=O)[C@@H]1CCCN1C(=O)[C@H](CCCCN)NC(=O)[C@@H](N)CO)C(=O)N1CCC[C@H]1C(=O)N[C@@H](CCC(=O)O)C(=O)N[C@H](C(=O)N[C@H](C(=O)N[C@@H](CC(=O)O)C(=O)N[C@@H](CCC(=O)O)C(=O)N[C@@H](Cc1ccc(O)cc1)C(=O)N[C@@H](Cc1cn(CCOCCOCCOCCNC(=O)CCc2ccc(O)c(CN(CCN(CC(=O)O)Cc3cc(CCC(=O)NCCCC[C@H](NC(=O)N[C@@H](CCC(=O)O)C(=O)O)C(=O)O)ccc3O)CC(=O)O)c2)nn1)C(=O)O)[C@@H](C)O)C(C)C [gallium-68 labelled]; system = NMRI nu/nu mice, LNCaP tumour, spleen; setting = 135.34 nmol/kg, low molar activity; endpoint = standardized uptake value; result = 0.1 g/g
Structure (SMILES) = N=C(N)NCCC[C@@H]1NC(=O)[C@H](CCCCNC(=O)CNC(=O)CNC(=O)CNC(=O)CC[C@H](NC(=O)c2ccc(NN=Cc3ccccc3S(=O)(=O)O)nc2)C(=O)NCC(=O)NCC(=O)NCC(=O)NCCCC[C@@H]2NC(=O)[C@@H](Cc3ccccc3)NC(=O)[C@H](CC(=O)O)NC(=O)CNC(=O)[C@H](CCCNC(=N)N)NC2=O)NC(=O)[C@@H](Cc2ccccc2)NC(=O)[C@H](CC(=O)O)NC(=O)CNC1=O [technetium-99m labelled]; system = athymic nu/nu mouse, female, MDA-MB-435 xenograft; setting = intravenous, 120 min; how to read = relative to: tumour over liver; endpoint = tumour to tissue ratio; result = 3.09 ± 0.76
Structure (SMILES) = N=C(N)NCCC[C@@H]1NC(=O)[C@H](CCCCNC(=O)CCc2cn(CCC[C@@H]3O[C@H](COC(=O)NCCNC(=O)CN4CCN(CC(=O)O)CCN(CC(=O)O)CCN(CC(=O)O)CC4)[C@@H](O)[C@H](O)[C@H]3O)nn2)NC(=O)[C@@H](Cc2ccccc2)NC(=O)[C@H](CC(=O)O)NC(=O)CNC1=O [gallium-68 labelled]; assay = PET; system = female NMRI nu/nu mice, U-87 MG xenograft, normal brain; setting = intravenous, 10 MBq, hour 2 of recording; endpoint = SUVmean; result = 0.06 ± 0.01 SUV
Structure (SMILES) = N=C(N)NCCC[C@@H]1NC(=O)[C@H](CCCCNC(=O)CNC(=O)CNC(=O)CNC(=O)CC[C@H](NC(=O)CCOCCOCCOCCOCCNC(=O)CC[C@H](NC(=O)CN2CCN(CC(=O)O)CCN(CC(=O)O)CCN(CC(=O)O)CC2)C(=O)NCCOCCOCCOCCOCCC(=O)N[C@@H](CCC(=O)NCC(=O)NCC(=O)NCC(=O)NCCCC[C@@H]2NC(=O)[C@@H](Cc3ccccc3)NC(=O)[C@H](CC(=O)O)NC(=O)CNC(=O)[C@H](CCCNC(=N)N)NC2=O)C(=O)NCC(=O)NCC(=O)NCC(=O)NCCCC[C@@H]2NC(=O)[C@@H](Cc3ccccc3)NC(=O)[C@H](CC(=O)O)NC(=O)CNC(=O)[C@H](CCCNC(=N)N)NC2=O)C(=O)NCC(=O)NCC(=O)NCC(=O)NCCCC[C@@H]2NC(=O)[C@@H](Cc3ccccc3)NC(=O)[C@H](CC(=O)O)NC(=O)CNC(=O)[C@H](CCCNC(=N)N)NC2=O)NC(=O)[C@@H](Cc2ccccc2)NC(=O)[C@H](CC(=O)O)NC(=O)CNC1=O [indium-111 labelled]; system = athymic nude mice, female, U-87 MG glioma xenograft, tumour and blood; setting = intravenous, 24 h; how to read = relative to: tumour over blood; endpoint = tumour to tissue ratio; result = 266 ± 59
Structure (SMILES) = CCCC[C@H](NC(=O)CNC(=O)[C@H](CO)NC(=O)CNC(=O)c1ccc(NN)nc1)C(=O)N[C@H]1CC(=O)NCCCC[C@@H](C(N)=O)NC(=O)[C@H](Cc2c[nH]c3ccccc23)NC(=O)[C@H](CCCNC(=N)N)NC(=O)[C@@H](Cc2ccccc2)NC(=O)[C@H](Cc2c[nH]cn2)NC1=O [technetium-99m labelled]; system = C57 mouse, B16/F1 melanoma, skin; setting = intravenous, 2 h; endpoint = uptake; result = 0.22 ± 0.06 %ID/g
Structure (SMILES) = N=C(N)NCCC[C@@H]1NC(=O)[C@H](CCCCNC(=O)CC[C@H](NC(=O)CCOCCOCCOCCOCCNC(=O)CN2CCN(CC(=O)O)CCN(CC(=O)O)CCN(CC(=O)O)CC2)C(=O)NCCCC[C@@H]2NC(=O)[C@@H](Cc3ccccc3)NC(=O)[C@H](CC(=O)O)NC(=O)CNC(=O)[C@H](CCCNC(=N)N)NC2=O)NC(=O)[C@@H](Cc2ccccc2)NC(=O)[C@H](CC(=O)O)NC(=O)CNC1=O [indium-111 labelled]; system = female athymic nude mouse, U-87 MG tumour; setting = intravenous, 3 µCi, 4 h, U-87 MG glioma xenograft; endpoint = tumour uptake; result = 4.8 %ID/g
Structure (SMILES) = N=C(N)NCCC[C@@H]1NC(=O)[C@H](CCCCNC(=O)CCOCCOCCOCCOCCNC(=O)CC[C@H](NC(=O)[C@H](CCCCNC(=O)c2ccc(NN)nc2)NC(=O)c2ccc(NN)nc2)C(=O)NCCOCCOCCOCCOCCC(=O)NCCCC[C@@H]2NC(=O)[C@@H](Cc3ccccc3)NC(=O)[C@H](CC(=O)O)NC(=O)CNC(=O)[C@H](CCCNC(=N)N)NC2=O)NC(=O)[C@@H](Cc2ccccc2)NC(=O)[C@H](CC(=O)O)NC(=O)CNC1=O [technetium-99m labelled]; system = female athymic nude mice; setting = intravenous, 1 h, U-87 MG glioma xenograft; how to read = relative to: tumour over muscle; endpoint = tissue ratio; result = 8.68 ± 1.84
Structure (SMILES) = N=C(N)NCCC[C@@H]1NC(=O)[C@H](CCCCNC(=O)CC[C@H](NC(=O)CCOCCOCCOCCOCCNC(=O)CC[C@H](NC(=O)CN2CCN(CC(=O)O)CCN(CC(=O)O)CCN(CC(=O)O)CC2)C(=O)NCCOCCOCCOCCOCCC(=O)N[C@@H](CCC(=O)NCCCC[C@@H]2NC(=O)[C@@H](Cc3ccccc3)NC(=O)[C@H](CC(=O)O)NC(=O)CNC(=O)[C@H](CCCNC(=N)N)NC2=O)C(=O)NCCCC[C@@H]2NC(=O)[C@@H](Cc3ccccc3)NC(=O)[C@H](CC(=O)O)NC(=O)CNC(=O)[C@H](CCCNC(=N)N)NC2=O)C(=O)NCCCC[C@@H]2NC(=O)[C@@H](Cc3ccccc3)NC(=O)[C@H](CC(=O)O)NC(=O)CNC(=O)[C@H](CCCNC(=N)N)NC2=O)NC(=O)[C@@H](Cc2ccccc2)NC(=O)[C@H](CC(=O)O)NC(=O)CNC1=O [indium-111 labelled]; system = athymic nude mice, female, U-87 MG glioma xenograft, tumour and lungs; setting = intravenous, 24 h; how to read = relative to: tumour over lungs; endpoint = tumour to tissue ratio; result = 6.76 ± 3.99
Structure (SMILES) = C/C=C(/C)C(=O)O[C@H]1C(C)=C2[C@H]([C@@H]1OC(=O)CCCCCCC)[C@@](C)(OC(C)=O)C[C@H](OC(=O)CCCCCCCCCCCNC(=O)[C@H](CO)NC(=O)[C@@H]1CCCN1C(=O)CNC(=O)[C@@H](NC(=O)[C@H](CCC(=O)O)NC(=O)CNC(=O)[C@H](CCCNC(=N)N)NC(=O)[C@@H](N)CCC(=O)O)[C@@H](C)O)[C@@]1(O)[C@H]2OC(=O)[C@@]1(C)O; system = mouse, plasma; setting = intravenous; endpoint = Tmax; result = ≤ 1 h

A few entries again:
Structure (SMILES) = N=C(N)NCCC[C@@H]1NC(=O)[C@H](CCCCNC(=O)CNC(=O)CNC(=O)CNC(=O)CC[C@H](NC(=O)CCOCCOCCOCCOCCNC(=O)CC[C@H](NC(=O)CN2CCN(CC(=O)O)CCN(CC(=O)O)CCN(CC(=O)O)CC2)C(=O)NCCOCCOCCOCCOCCC(=O)N[C@@H](CCC(=O)NCC(=O)NCC(=O)NCC(=O)NCCCC[C@@H]2NC(=O)[C@@H](Cc3ccccc3)NC(=O)[C@H](CC(=O)O)NC(=O)CNC(=O)[C@H](CCCNC(=N)N)NC2=O)C(=O)NCC(=O)NCC(=O)NCC(=O)NCCCC[C@@H]2NC(=O)[C@@H](Cc3ccccc3)NC(=O)[C@H](CC(=O)O)NC(=O)CNC(=O)[C@H](CCCNC(=N)N)NC2=O)C(=O)NCC(=O)NCC(=O)NCC(=O)NCCCC[C@@H]2NC(=O)[C@@H](Cc3ccccc3)NC(=O)[C@H](CC(=O)O)NC(=O)CNC(=O)[C@H](CCCNC(=N)N)NC2=O)NC(=O)[C@@H](Cc2ccccc2)NC(=O)[C@H](CC(=O)O)NC(=O)CNC1=O [indium-111 labelled]; system = athymic nude mice, female, U-87 MG glioma xenograft, tumour and blood; setting = intravenous, 24 h; how to read = relative to: tumour over blood; endpoint = tumour to tissue ratio; result = 266 ± 59
Structure (SMILES) = N=C(N)NCCC[C@@H]1NC(=O)[C@H](CCCCNC(=O)CCOCCOCCOCCOCCNC(=O)CC[C@H](NC(=O)[C@H](CCCCNC(=O)c2ccc(NN)nc2)NC(=O)c2ccc(NN)nc2)C(=O)NCCOCCOCCOCCOCCC(=O)NCCCC[C@@H]2NC(=O)[C@@H](Cc3ccccc3)NC(=O)[C@H](CC(=O)O)NC(=O)CNC(=O)[C@H](CCCNC(=N)N)NC2=O)NC(=O)[C@@H](Cc2ccccc2)NC(=O)[C@H](CC(=O)O)NC(=O)CNC1=O [technetium-99m labelled]; system = female athymic nude mice; setting = intravenous, 1 h, U-87 MG glioma xenograft; how to read = relative to: tumour over muscle; endpoint = tissue ratio; result = 8.68 ± 1.84
